Experimental data gathered from unrelated publications.
Numbered parts are unrelated; each lists some results of a single study.

Series 1 — technique: RNA Bind-n-Seq; form: RNA; medium: in vitro; tested at: 365 nM; baseline: no-protein control; direction: higher = stronger binding; quantity: RBNS enrichment (R)
Target: RNA binding protein fox-1 homolog 2, RRM domain, GST-SBP tag (RBFOX2, Homo sapiens, UniProt O43251-10, residues 100-194)
Setting: natural RNA segment, single round, ends assumed
Constant ends, left off below: GGGAGUUCUACAGUCCGACGAUC … UGGAAUUCUCGGGUGCCAA
Strand = UAAUACAUCAUUCCAGUCUUGCUGGUAAUUUUGUACAGUAUAGUGUAUGAAUUGCUGUGCUGCAAAGCCAAACAGCUGCAAAAUGUUGAAAAAUCAUCGAAAUGUAUAAA; result = 0.525
Strand = UCACUGGGACCCAAUAUAAAGCUGGAGCCAGAGAACUGAGUCCAGAGAAUUGUCCUCUGACCUCCAUGUGCGGUAGCCCACGUGACGCACCCAAUAAUAAUUAAAUAAAU; result = 0.449
Strand = GCCCCGUGUAGGCAUCGUCGGUCGGUUUGCCGUCAGAGAUGGCGCAUCUCGCUGCAUCCCCCGAGAGUACACCGGUUGCUCUAGCCACCUGCGGCCCGCCCAUCUGCGCU; result = 0.389
Strand = GUAGGGUACAGAAUAGAGCGUGUGCUGUUGAUAAUAUCUCUCACCCGGAUCCCUCCUCACUUGCCCUGCCACUUUGCAUGGUUUGAUUUUGACCUGGUCCCCCACGUGUG; result = 2.96
Strand = AAAAAAAUGUGUUUGAACUAUAUUGUAUGUAAUUUGGAAGUCGUGUUAAUAAAACCCUGCAGUUUCCACUCUGGUUCCGUAGCCUUCAUUUUGUCUGGGCGCUCAGGUCG; result = 4.23
Strand = UAAGUUUGUGAGGUACAAGAAUAUGUUUUCAUGAAAGUAACAUUGUUUAUCUAGCAAACGUGACAAUAUUUUUAUGUAUAUAAUGAUUCUAAUCUAAGUUAAUUAAUGUG; result = 0.62
Strand = CAGAUUUCCCUUUGAAGAAACACUUCUGACAUGGGUAAUUUCUCAAUCAGGGGUCACUUUUAUGAACAGCAUGCAGAAAAAUAGAUCUUCGGGAAUGUUUAAGAUCGAUC; result = 39.9
Strand = CGUUAUCUUAAGGUGCAGUUUUAAGGUUCAGGCAUGCGCUCUGGCUCAUAGUGUUUGAAAGUGAUGUCCAUUAGUGGGACCGUAGCAUGCUUGCCUCGCAUAGAGUGCAG; result = 4.54

Series 2 — technique: RNA Bind-n-Seq; form: RNA; medium: in vitro; tested at: not given; baseline: input RNA pool; direction: higher = stronger binding; quantity: bound/input enrichment
Target: RING finger protein unkempt homolog, zinc fingers 1-6, GST-SBP tag (UNK, Homo sapiens, UniProt Q9C0B0, residues 30-357)
Setting: RNA with constant flanks, human-mouse chimeric sites, ends assumed
Constant ends, left off below: GGGAGUUCUACAGUCCGACGAUC … CAACAGAGGAUUGAGCAUCA
Target sequence (chain): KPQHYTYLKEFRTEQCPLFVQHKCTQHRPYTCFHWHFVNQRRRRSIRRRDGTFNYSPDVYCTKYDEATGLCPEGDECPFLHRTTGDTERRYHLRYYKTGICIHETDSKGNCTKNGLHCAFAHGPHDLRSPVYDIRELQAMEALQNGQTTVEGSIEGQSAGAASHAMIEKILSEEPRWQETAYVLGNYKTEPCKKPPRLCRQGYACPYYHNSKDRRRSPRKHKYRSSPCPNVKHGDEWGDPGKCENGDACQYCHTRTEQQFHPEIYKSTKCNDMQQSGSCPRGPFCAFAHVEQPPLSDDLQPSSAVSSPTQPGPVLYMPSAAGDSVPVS
Strand = GCAAAGGAUGAUGAGGCAGCUGCAGUUGCACUUUCCUCUCUCGUUCAUGCUUUGGAUGAGUUAAACAUGGUCGCCAUCGUCCGAUAUGCUUAUGACAAAAGAUCUAAUCCUCAAGUUGGU; result = 0.129 ratio
Strand = AUAAAGGCUAUGUUGAGUGGCCCAGGUCAGUUUGCUGAGAAUGAAACCAACGAGGUCAAUUUUAGAGAGAUCCCCUCACAUGUGCUAUCGAAAGUAUGCAUGUAUUUUACCUACAAGGUC; result = 0.194 ratio
Strand = CUGUGUGUGCUGAAUAAAUGGCUUGUAAAGAAGUUUUUCCAAGCUGUAACCCAUGCUGUUAUUAUAGUUGCUGCAAAAUGUCUCUUAUAUUGAUGUUUUUAUUUGUUAACUGAAGGUCUC; result = 0.309 ratio
Strand = AGCGUUCAGGAAUUCAUGACCUUUACAAGUCAACUGAUUGUGGAACGCUCGGGGAAAGGCACUAGAGCUUCUGUCAAAGAACAAGAGUAUCUUUGCCAUGUCUACGUCCGGAGCGACAGU; result = 0.0867 ratio
Strand = CGAGACAAAGCAUCUAGGAACAUGCGAGGCUCCCGGAUGAAUGGGUUGCCUAGCCCCACUCACAGCGCCCACUGUAGCUUCUACCGAACCAGAACCUUGCAGGCACUGAGUAAUGAGAAG; result = 0.0505 ratio
Strand = GAGUCGAUUAUGGAAACAACAAUUCGUUAUCUUGCAGCCUCAGUGUUCACUUGCUUGGCGAUAGCAUUGGGGUUUUAUAUAGAUUCUAAGGAGAACUGACGAUGAUGCUGCCGCUGCUGC; result = 0.342 ratio
Strand = CACAGAGCAGCACCUACCCCCUCCUCCUUUCCACACCUGCAAACUCUUUUGCCUGGGCUGCAUAGUUAGUGUAAUUACAUCUCAGCUUUGAGGGCUCCUGUGGCAAAUUCCCGGAUUAAA; result = 0.973 ratio
Strand = CAGUCCCCGUGUCCCAGUGCAGGACGAUGUGAACAAAAACUCAAAGCGGACCCUCUACUGUAGUUGAUUUUUUAAAUAAUGUGCUAUUAUUGUUUGUCUUUUUUUUUUUUUUUUUAAAGA; result = 7.07 ratio

Series 3 — technique: aptamer microarray, sandwich; form: DNA with 2'F-ANA; medium: in vitro; tested at: 200 nM; with: Cy3 exosite-II aptamer, 400 nM; direction: higher = stronger binding; quantity: mean fluorescence intensity; strand: GGTTGGTGTGGTTGG
Target: Prothrombin, mature alpha-thrombin (F2, Homo sapiens, UniProt P00734)
Setting: whole 15-mer aptamer, many near background
Modification = 2'F-ANA at 3 4 5 6 8 10 11 12 14 15; result = 49.2 a.u.
Modification = 2'F-ANA at 1 5 6 8 10 13 14; result = 47.3 a.u.
Modification = 2'F-ANA at 2 3 8 11 13; result = 778 a.u.
Modification = 2'F-ANA at 1 3 4 5 6 11 12 13 14; result = 45.8 a.u.
Modification = 2'F-ANA at 1 6 7 8 9 11 14 15; result = 58.3 a.u.
Modification = 2'F-ANA at 1 2 6 7 9 12 13 15; result = 185 a.u.
Modification = 2'F-ANA at 5 8 9 12 14; result = 50.4 a.u.
Modification = 2'F-ANA at 2 5 6 7 9 10 12 13 15; result = 153 a.u.
Modification = 2'F-ANA at 3 7 10 12 14 15; result = 477 a.u.
Modification = 2'F-ANA at 1 2 10 12 13 14 15; result = 77.1 a.u.
Modification = 2'F-ANA at 1 2 5 6 8 9 11 14 15; result = 57.2 a.u.
Modification = 2'F-ANA at 1 2 3 6 7 8 10 11 13 15; result = 61.3 a.u.
Modification = 2'F-ANA at 3 5 7 8 9 10 12 13; result = 80.5 a.u.
Modification = 2'F-ANA at 1 5 7 10 13 15; result = 43.4 a.u.
Modification = 2'F-ANA at 3 4 5 7 8 10 12 13; result = 54.5 a.u.
Modification = 2'F-ANA at 1 6 7 10 11 13; result = 50.1 a.u.
Modification = 2'F-ANA at 1 4 6 7 9 12; result = 217 a.u.
Modification = 2'F-ANA at 1 2 7 8 9; result = 194 a.u.
Modification = 2'F-ANA at 2 5 7 13 14; result = 44.4 a.u.
Modification = 2'F-ANA at 2 3 4 8 12 13; result = 763 a.u.
Modification = 2'F-ANA at 2 3 10 11 12 13 14; result = 236 a.u.

Series 4 — technique: universal PBM; form: double-stranded DNA, one strand shown; medium: in vitro; tested at: 600 nM; direction: higher = stronger binding; quantity: E-score
Target: Sal-like protein 4, full length isoform A (SALL4, Homo sapiens, UniProt Q9UJQ4, residues 1-1053)
UniProt Q9UJQ4, sequence (whole entry, looked up): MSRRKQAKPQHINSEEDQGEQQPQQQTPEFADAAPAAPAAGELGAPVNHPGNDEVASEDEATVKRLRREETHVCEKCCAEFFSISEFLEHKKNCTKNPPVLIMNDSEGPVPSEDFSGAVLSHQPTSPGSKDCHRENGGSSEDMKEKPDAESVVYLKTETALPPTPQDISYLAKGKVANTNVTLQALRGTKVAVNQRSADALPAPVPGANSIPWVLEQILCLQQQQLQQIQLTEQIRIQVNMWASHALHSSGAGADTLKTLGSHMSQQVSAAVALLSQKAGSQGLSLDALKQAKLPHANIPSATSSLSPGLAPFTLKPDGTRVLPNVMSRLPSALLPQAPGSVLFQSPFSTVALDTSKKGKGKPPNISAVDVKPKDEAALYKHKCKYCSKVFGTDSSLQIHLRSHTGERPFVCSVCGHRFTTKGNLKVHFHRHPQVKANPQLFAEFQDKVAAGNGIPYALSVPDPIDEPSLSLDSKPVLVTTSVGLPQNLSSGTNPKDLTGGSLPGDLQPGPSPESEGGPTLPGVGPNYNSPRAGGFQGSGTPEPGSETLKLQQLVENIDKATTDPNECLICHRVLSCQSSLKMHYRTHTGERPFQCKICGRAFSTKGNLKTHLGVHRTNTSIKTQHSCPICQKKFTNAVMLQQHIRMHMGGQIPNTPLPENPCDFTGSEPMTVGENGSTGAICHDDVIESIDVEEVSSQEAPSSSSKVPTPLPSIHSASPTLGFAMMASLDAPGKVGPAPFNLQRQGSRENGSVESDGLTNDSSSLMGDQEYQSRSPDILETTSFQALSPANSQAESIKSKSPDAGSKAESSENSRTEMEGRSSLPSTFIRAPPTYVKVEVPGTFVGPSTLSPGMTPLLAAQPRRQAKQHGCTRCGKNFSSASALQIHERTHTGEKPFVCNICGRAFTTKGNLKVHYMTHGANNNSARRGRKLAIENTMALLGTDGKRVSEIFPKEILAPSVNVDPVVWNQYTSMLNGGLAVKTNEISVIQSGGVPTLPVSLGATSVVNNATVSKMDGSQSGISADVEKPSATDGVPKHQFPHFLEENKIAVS
Setting: 8-mer, flanks averaged, mean of replicates
Strand = GGACGTAC; result = -0.18
Strand = ACCGCGGT; result = -0.247
Strand = ACGCTGCA; result = -0.165
Strand = CTACTGAA; result = 0.112
Strand = CATTCACG; result = -0.113
Strand = ATGCGAGG; result = 0.0161
Strand = GCCTCCTA; result = -0.193
Strand = CTCACGCC; result = -0.327
Strand = GTGACGGA; result = -0.135
Strand = CCTGCCGC; result = -0.441
Strand = TGCTACAA; result = 0.175
Strand = GGAGCTCA; result = -0.143
Strand = AAGCATTG; result = -0.0271
Strand = CAGCCCGC; result = -0.37
Strand = CATACCGC; result = -0.0716
Strand = CACATCTA; result = 0.195
Strand = AGTGCTAT; result = 0.142
Strand = ACTGGCGA; result = -0.271
Strand = ACCCTGAA; result = -0.0524
Strand = AGGGACTG; result = -0.2
Strand = AGCGGCGC; result = -0.338
Strand = AGCACTCC; result = -0.0925
Strand = GCTCGAAA; result = -0.054
Strand = ATCAGGTA; result = 0.181

A few entries again (series 4):
Strand = ACTGGCGA; result = -0.271
Strand = ACCCTGAA; result = -0.0524
Strand = AGGGACTG; result = -0.2
Strand = AGCGGCGC; result = -0.338
Strand = AGCACTCC; result = -0.0925
Strand = GCTCGAAA; result = -0.054
